Measurements pooled from the literature.
Numbered parts are unrelated; each lists some results of a single study.

Sample 1
Target: RNA binding protein fox-1 homolog 2, RRM domain, GST-SBP tag (RBFOX2, Homo sapiens, UniProt O43251-10, residues 100-194)
Method: RNA Bind-n-Seq
Molecule type: RNA
Sample: in vitro
Concentration: 365 nM
Setting: natural RNA segment, single round, ends assumed
Reference: no-protein control
Direction: higher = stronger binding
Endpoint: RBNS enrichment (R)
Shared flanks, not repeated: GGGAGUUCUACAGUCCGACGAUC … UGGAAUUCUCGGGUGCCAA
Construct (chain): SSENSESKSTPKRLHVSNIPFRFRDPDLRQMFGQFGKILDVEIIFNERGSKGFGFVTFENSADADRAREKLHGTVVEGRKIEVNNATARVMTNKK
GCUGUACUCAUUGGUAGUUUCAGUAUAUGUAAUGUGAGUUUAAAUAGUGAAAUUGUAUCUCAUAUUAACAUUUCAAAUGCUCAUAUUGAAAAUGGAAAAUAGUAAACACG: 0.448
UGUCUGGAGCAGAGGCAAACAUCUGACUUCAUUCUUAGCCCCAAGCUGCCAUUUCUGAGUCCUUGAGAGGCUGAGAAGGCUCUAGCUUUGUACUGUAUUCUUACUGUGUG: 0.291
GAGAAUGUGCUAGAGACAGCCCCUGUCUUCUUGGCGUGGUUUAUAUGUCCGGGAUCUGGAUCAGAUUCUGGGGGCUCAGAAACGUCGGUUGCAUUGAGCUACUGGGGGUA: 0.724
CACCAUGUGGGGAGCGGGAGCAGGACUACUGUGCCCUUGGCCUGACGUGUGGGGAGAGAGGAGCAUGGCCAGUUCCCUGCAGGCUCUGGAAAGCAUGGGCCAUUGUCACC: 2.49
AGAGCUUCUAUUUGGGUUAAAACAUCCACUCACUUGGUUAGGAGCUAUGCCUCAGAAACUUCCUGGGAGUAAAUAUGGGAACAACUUUUCUAUUAAUACAUCUAAAUUUU: 0.432
CCACUCUCACUCUUGGUGCAACUGACUUCCACUUCUUAUGCAGCCACUCCCAGGUGCAUGCUUCAGUGAGUGCCACAUGCCACUAGCUUUUACCAAUAACCAUAUUCUGG: 2.01
GCUUCUGUGUGUGGUGAGCAGAAGUGGAGCUGGGGGGCGUGGAGAGCCCGGCGCCCCUGCCACCUCCCUGACCCGUCUAAUAUAUAAAUAUAGAGAUGUGUCUAUGGCUG: 0.622
GAGGGGCUCGGUGACCAAGGUAAACCACACGCGCAAACCGAGGCAGUCAUCUACAAAUAACCCAUCAUCUAUUUAAUGUUUUUAACCACCUACUUUUGUAUGGAGUUAAA: 0.231
UAUUUGCACAGUUUUUGCGUCUUGUUUGCUUCUUGCAUCUGAUUAACUAGAAUAUUUCUCUUUCCCCCUUUUAAUUUGUGAUGUCACUUGACCCCAUUUAUGUGUAGGAG: 4.34
CUGGGUGAGGCUCACCUGCCCAGGACCACAGUGGGACAGCCUGGGCAGGUGGGUGGCACAGCAUAAGAACCCAGCUGGGGCCAGCCCUCCCUGUCCUGGCUGGUCAGUGU: 0.72
CAGGUUAUGCCUCAUGCUGACUUGCAGAGUUCAUGGAAUGUAACUAUAUCAUCCUUUAUCCCUGAGGUCACCUGGAAUCAGAUUAUUAAGGGAAUAAGCCAUGACGUCAA: 0.263
UGGGCAAGGAAGUGGCUUCAGAGGACGUCCAGCCUCAGCUGGCCCCACGGAGAGCUCCAGGCAGAGCCCACAGUACCACAGUGUGCCCACACCACCGGUUACUGGCUCCU: 0.291

Sample 2
Target: Interferon regulatory factor 7, full length, phosphomimetic (IRF7, Homo sapiens, UniProt Q92985, residues 1-503, S471D/S472D/S475D/S476D/S477D/S483D/S484D/S487D)
Method: protein-binding microarray
Molecule type: double-stranded DNA, one strand shown
Sample: in vitro
Concentration: 2200 nM top
Setting: 60-bp whole probe
Together with: salmon DNA 0.4 mg/ml
Reference: random background probes
Direction: higher = stronger binding
Endpoint: fitted relative affinity
Shared flanks, not repeated: GCCTAGCAC … GTCTTGATTCGCTTGACGCTGCTG
Residues (chain): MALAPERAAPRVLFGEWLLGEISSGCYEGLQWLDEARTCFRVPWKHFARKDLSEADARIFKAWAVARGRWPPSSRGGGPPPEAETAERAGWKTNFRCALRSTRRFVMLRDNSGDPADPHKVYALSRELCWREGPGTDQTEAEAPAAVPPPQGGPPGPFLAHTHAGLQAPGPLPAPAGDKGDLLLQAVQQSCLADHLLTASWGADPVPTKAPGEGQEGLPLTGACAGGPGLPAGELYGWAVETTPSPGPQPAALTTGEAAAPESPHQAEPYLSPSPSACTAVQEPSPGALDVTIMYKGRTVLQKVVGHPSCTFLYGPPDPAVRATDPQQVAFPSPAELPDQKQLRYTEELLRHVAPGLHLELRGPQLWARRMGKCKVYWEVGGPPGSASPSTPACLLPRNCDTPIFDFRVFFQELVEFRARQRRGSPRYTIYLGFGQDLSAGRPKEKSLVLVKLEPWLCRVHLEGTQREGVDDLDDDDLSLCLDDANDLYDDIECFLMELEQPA
GACGGTATCGGGTATCGAGACGTGCTA: -0.121 z-score
TTAGGTATCCTTTTCCTTGAGTGCTAG: 1.2 z-score
GACGGTATCCTAATCCTGACGTGCTAG: 0.631 z-score
TTAGACATCAGTATCGATTAGTGCTAG: 0.142 z-score
GGGTCACTCAATCTCAACAGGTGCTAG: 0.061 z-score
CTTTCTTTACTTCACTCTCTGTGCTAG: 2.31 z-score
TGGCCTATTTATATGAGATGGTGCTAG: -0.0273 z-score
GACGGTCTGCTTCTCCTGACGTGCTAG: 0.781 z-score
CTCACTCTAATCTCACTCTGTGTGCTA: 1.34 z-score
TCATCTTTCACTGCTCCCACTGTGCTA: 2.73 z-score
GCTCCAGGAAGCCTTGCCTGGTGCTAG: -0.668 z-score
TTAGGTCTCGGACTGCGTTAGTGCTAG: 0.465 z-score
CCAAGTTTATACCTTAGGTTGTGCTAG: 0.321 z-score
TCAACCATCCTGTGTCTTACTGTGCTA: 1.08 z-score
GACGGACAGCTTCTCCTGACGTGCTAG: 0.158 z-score
TTAGATCTCTGTATCGATTAGTGCTAG: 0.219 z-score
TTAGATTTCGGTTTCGATTAGTGCTAG: 11.9 z-score
TCATTTCCATTTTCTAAAACTGTGCTA: 3.88 z-score
GACGGTTTCCGACTGCTGACGTGCTAG: 2.07 z-score
TTAGGACTGGGATTCGGTTAGTGCTAG: 0.622 z-score
ACCATTTTGTTTTTCATTATGTGCTAG: 2.74 z-score

Sample 3
Target: PABPC1L2, full length, GST fusion (mouse, UniProt A0ABA7IW68)
Method: RNAcompete
Molecule type: RNA
Sample: in vitro
Concentration: 20 nM
Setting: 7-mer, probes averaged, single round
Reference: mean of 7-mers
Direction: higher = stronger binding
Endpoint: 7-mer Z-score
Construct (chain): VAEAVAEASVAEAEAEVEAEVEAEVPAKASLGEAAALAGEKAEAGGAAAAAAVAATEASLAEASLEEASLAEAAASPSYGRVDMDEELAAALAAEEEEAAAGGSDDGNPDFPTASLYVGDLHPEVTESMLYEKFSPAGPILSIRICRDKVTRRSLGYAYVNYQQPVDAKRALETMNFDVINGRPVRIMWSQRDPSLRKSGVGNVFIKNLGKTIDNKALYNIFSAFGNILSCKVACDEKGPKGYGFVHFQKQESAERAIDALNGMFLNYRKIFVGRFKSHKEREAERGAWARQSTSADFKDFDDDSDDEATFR
CCGGAUC: -0.249
GGUGACU: 0.000733
AGCAGCG: -0.0192
CUCUGGA: -0.146
UGGGUCC: -0.079
GUUGUCU: -0.365
GUAUGGA: 0.0352
CCGAAAC: 0.0334
UAGGUAA: -0.05
CUGAUUC: -0.271
UAACAGA: 0.276
AAGGGUC: 0.372
UUUAGUC: -0.302
GCCUGCA: -0.0609
UGCUCAG: -0.186
GACCACC: -0.0772

Sample 4
Target: Sal-like protein 4, full length isoform A (SALL4, Homo sapiens, UniProt Q9UJQ4, residues 1-1053)
UniProt Q9UJQ4, sequence (whole entry, looked up): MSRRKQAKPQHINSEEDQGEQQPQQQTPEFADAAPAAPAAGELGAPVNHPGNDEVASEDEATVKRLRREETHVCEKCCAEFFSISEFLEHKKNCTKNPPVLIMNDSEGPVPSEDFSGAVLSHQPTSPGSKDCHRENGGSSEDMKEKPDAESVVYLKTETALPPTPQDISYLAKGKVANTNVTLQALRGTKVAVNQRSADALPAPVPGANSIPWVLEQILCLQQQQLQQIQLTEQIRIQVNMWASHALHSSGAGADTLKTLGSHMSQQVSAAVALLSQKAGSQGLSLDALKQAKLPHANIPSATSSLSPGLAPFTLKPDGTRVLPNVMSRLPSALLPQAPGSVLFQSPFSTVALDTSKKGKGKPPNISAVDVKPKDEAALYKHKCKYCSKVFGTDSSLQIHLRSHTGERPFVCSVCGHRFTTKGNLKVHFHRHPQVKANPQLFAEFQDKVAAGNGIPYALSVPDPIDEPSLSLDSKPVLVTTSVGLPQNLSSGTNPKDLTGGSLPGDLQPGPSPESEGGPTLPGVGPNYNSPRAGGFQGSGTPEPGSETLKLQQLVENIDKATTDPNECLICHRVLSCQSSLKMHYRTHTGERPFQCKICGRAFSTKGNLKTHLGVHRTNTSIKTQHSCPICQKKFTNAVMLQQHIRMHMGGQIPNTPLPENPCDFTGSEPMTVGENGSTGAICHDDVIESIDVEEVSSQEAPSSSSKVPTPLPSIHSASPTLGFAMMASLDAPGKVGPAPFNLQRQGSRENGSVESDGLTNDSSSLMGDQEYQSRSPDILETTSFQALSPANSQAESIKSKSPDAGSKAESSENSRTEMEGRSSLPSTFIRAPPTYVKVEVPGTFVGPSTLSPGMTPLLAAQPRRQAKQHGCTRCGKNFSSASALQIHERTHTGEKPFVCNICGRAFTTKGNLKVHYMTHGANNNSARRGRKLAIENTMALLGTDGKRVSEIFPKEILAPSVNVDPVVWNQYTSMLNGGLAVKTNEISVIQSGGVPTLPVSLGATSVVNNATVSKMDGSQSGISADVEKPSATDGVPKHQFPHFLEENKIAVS
Method: universal PBM
Molecule type: double-stranded DNA, one strand shown
Sample: in vitro
Concentration: 600 nM
Setting: 8-mer, flanks averaged, mean of replicates
Direction: higher = stronger binding
Endpoint: E-score
CACCAAGG: -0.158
AGGCAGGA: -0.0481
TAACGTGA: 0.157
GCTTTCCC: -0.27
GTTCGGTA: 0.0244
ATTAGTTC: 0.165
CGGTTGAG: -0.0889
AAGTCACA: 0.141
CCTTTTAG: -0.0716
AGATGTAG: 0.0392
CGAAAGGC: -0.0572
CATTAGTC: -0.00266
ACTAGCCA: -0.0926
GGAGGGGA: -0.0857
ATATCTTG: 0.316
AGCCAGTG: -0.298
ACGTTCAC: -0.0572
ACAGGGGA: -0.177
CGGGCTAC: -0.315
ATTGCCGA: -0.0269
AGGGCAAC: -0.134
AATGCAGC: -0.172
AATTTGAG: 0.225
GATATAAA: 0.277

Sample 5
Target: Histone acetyltransferase KAT6A, winged helix 2, GST fusion (KAT6A, Homo sapiens, UniProt Q92794, residues 85-181)
Method: protein binding microarray
Molecule type: double-stranded DNA, one strand shown
Sample: in vitro
Concentration: not given
Setting: 8-mer, flanks averaged, mean of 2 arrays, mostly near background
Reference: not given
Direction: higher = stronger binding
Endpoint: E-score
Target sequence (chain): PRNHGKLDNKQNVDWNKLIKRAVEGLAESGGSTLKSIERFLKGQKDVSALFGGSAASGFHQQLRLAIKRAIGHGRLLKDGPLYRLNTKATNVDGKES
ACCTTGCT: 0.0227
ATCTAAAC: -0.0347
GACACCGC: 0.156
ATGGCAAC: 0.141
GCAAAACC: 0.0245
ACAAGCGC: 0.0807
AAGCGCTA: 0.166
CGAATCAC: 0.0471
AGTAATTG: -0.0193
AGCGAGTA: 0.0852
CTAGTGGC: 0.052
CAGGTCCG: 0.101
AGTTTTTC: -0.0295
ACGGCCAG: -0.0459
GTGCCAAA: 0.131
ACTACGAG: -0.0966
AGGAATTC: -0.0549
ACGCAGAC: 0.118
AGGTACCA: -0.119
AAACGGGG: 0.0345
CTCTCTAA: -0.102
CATTCGAC: -0.00834
AGCGCATG: -0.0441
GTCATCCA: -0.0839
GCACACGC: 0.104

Sample 6
Target: Transcriptional repressor CTCF (CTCF, Homo sapiens, UniProt P49711, residues 1-727, full length assumed)
UniProt P49711, sequence (whole entry, looked up): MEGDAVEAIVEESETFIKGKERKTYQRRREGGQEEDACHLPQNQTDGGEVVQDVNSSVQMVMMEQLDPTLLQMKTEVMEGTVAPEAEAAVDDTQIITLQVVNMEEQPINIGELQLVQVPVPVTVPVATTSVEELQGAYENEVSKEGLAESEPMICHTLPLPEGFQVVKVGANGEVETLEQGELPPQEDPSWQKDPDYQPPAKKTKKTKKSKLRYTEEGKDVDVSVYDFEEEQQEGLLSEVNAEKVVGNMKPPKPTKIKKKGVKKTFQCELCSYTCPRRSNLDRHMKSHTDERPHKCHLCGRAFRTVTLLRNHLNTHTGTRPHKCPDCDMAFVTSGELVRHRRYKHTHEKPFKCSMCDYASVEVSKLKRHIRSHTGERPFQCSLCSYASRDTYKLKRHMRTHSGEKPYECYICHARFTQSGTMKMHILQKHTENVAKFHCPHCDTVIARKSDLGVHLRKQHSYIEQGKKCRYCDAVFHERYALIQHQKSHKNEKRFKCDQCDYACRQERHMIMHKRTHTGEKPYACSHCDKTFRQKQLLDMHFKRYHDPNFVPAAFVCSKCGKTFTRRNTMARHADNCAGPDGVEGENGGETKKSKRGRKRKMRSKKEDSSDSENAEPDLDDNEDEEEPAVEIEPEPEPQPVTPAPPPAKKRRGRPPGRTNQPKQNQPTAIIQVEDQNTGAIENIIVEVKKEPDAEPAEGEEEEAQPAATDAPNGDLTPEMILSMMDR
Method: protein-binding microarray
Molecule type: double-stranded DNA, one strand shown
Sample: in vitro
Concentration: not given
Setting: k-mer, scored over probes, only values ≥0.25
Direction: higher = stronger binding
Endpoint: E-score
CTATGCGC: 0.356
AGCGCCAT: 0.271
ATAGTATC: 0.291
GGTAATAA: 0.279
AGTATACA: 0.264
AAAAATAC: 0.262
AGTAACAG: 0.251
TATATAGA: 0.291
ACCATATA: 0.321
CGCGAAAA: 0.281
TAGTAAAA: 0.267
ATATATTC: 0.295
AATATTAG: 0.259
AATTATTA: 0.339
AAACATCA: 0.252
CAATATAC: 0.369
ATAAGTAT: 0.294
CATATATC: 0.261
AAGGGGGC: 0.31
CACTAGGG: 0.376
ATGTTATG: 0.27
TACGTATA: 0.347
ATACAACA: 0.258
CGCTAATA: 0.276

Some of these lines once more (sample 5):
AGCGCATG: -0.0441
AGGAATTC: -0.0549
CAGGTCCG: 0.101
ACGCAGAC: 0.118
AGTAATTG: -0.0193
ACGGCCAG: -0.0459
AAGCGCTA: 0.166
AAACGGGG: 0.0345
GACACCGC: 0.156
GTCATCCA: -0.0839
